Assay results of several laboratories.
Numbered parts are unrelated; each lists some results of a single study. Positions count from the first letter of the parent shown.

Study 1
Target: RNA binding protein fox-1 homolog 2, RRM domain, GST-SBP tag (RBFOX2, Homo sapiens, UniProt O43251-10, residues 100-194)
Method: RNA Bind-n-Seq
Form: RNA
Matrix: in vitro
Concentration: 365 nM
Setting: natural RNA segment, single round, ends assumed
Reference: no-protein control
Reading: higher = stronger binding
Constant ends, left off below: GGGAGUUCUACAGUCCGACGAUC … UGGAAUUCUCGGGUGCCAA
Construct (chain): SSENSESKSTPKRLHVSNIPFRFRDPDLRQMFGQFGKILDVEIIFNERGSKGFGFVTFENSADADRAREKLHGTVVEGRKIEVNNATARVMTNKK
Sequence	RBNS enrichment (R)
CCCCAAACUUCUGUCGAGGAGCAAGGCUUGCCAGCAAGUCAGAAGGAUUUGAACCGAGCAGCCAAUCUUUCCAGCCCUCCCCUACCGACCUCUGCCUGGAGACGCAGCAG	0.604
CGGGGAGGGUUGGCAGUGGUGGGGCCCAUCCUCUAUCCUGUAGCUCCUGCCGCUGCGAGGCUGAACUCUUUGGUCCUGCCUCCCGUUCUCAAUACACUCUGUCUCAAAUC	0.546
AUUGGGGGACACGGUGGCCACUCGCGGUCUGUGUCAUGACACUUCCCAUUCACAUCAUUGGCCUGCGUUGCUGGGGCUUUGAACCACCACCCCGUACUUUGUUUUGCCUG	0.821
GUACUUUCCCCGGAAACUACGUCAAGAGGCUGUGAAUUGCGCUCCCUCCUUCUGUAGAGGCCGCCUGCCAGCCAUGCACCUGCGUCAACGCGCCUGAAACACCCCGCGGG	0.284
GCGGUGACUUUCUUUUUUUGUAAAGCAAAUUACUUAAGAAAAUACAAUUCACUUGAAUUUGACAAACUGAAACAGAUGGGUUUUCUGGGUUCUCUGAUAACCUAUGGGAA	0.304
GAGUUGUGAGCUCUUCUUCUGUAGCCCUGAAGGGACACUGUAUUCUGUAUGAAUGCAUGGCAUGAGACAACUAAUUUAAGAGACUUUUAUAAAUAAAGUUUGCAUUAACU	1.31
AGGGCUGAACAUAGGAUUUAUGGCUAGCAGAAUUCCAGCUCCCUUGGGUAAGGAACCAAAGCUCUCUUGGCUAUAGCCAGCCUCCUCAUUGAAGGGUGUUUUAGGGUAUC	0.318
UCAGUGGUCAUUCUUCUGCCUUCCAAAAUCUUAGUUUUAUAAAAGCAUUGUGUAUGACAGAGUGGCCUUGAAGAGACUGAAUAAUCAUUUUAUAAUAAUGUUGAAGGAAA	1.32
GUUGAGCCCAAGUGGUGGAGUCCUAUUCAUGGGCCUCAGUGCAUGCUGGCUUUAGCCCCAUGCUCAGGGUUCUCUGGGAAGUUUCAGGUUUCCAAGAUAGCACAGUGACC	1.09
UCUCAUGUUCUGGCAUCCACAUAAUUCUUGUUUUCUCUGACUUAUAGCUAAAGAAAUUUUUGUGGUUUCUCUGCUUAUGGUUUUGAGUUACUCUUUGUUCAGUAAUGCAC	0.253
UGCCACAGAAGGCAGAGGGUAGUUGGUGGCCUUUUCAUCCACUUAACCCUGACACAGGCAGCUGCUGACCGGCCGCCUGUGUCCUGUGUCCGUCCAUUCUGGGCCACAGC	0.257
GGAGAGGUAGAAGUUCCAGCCCAGGCAGAUGUGCACAAACAGAGCCCCCGCGUACAGGUCCAGCUGCGGAGGGAGAGAGCCUUGUGUGGGACUGUUAUUCCCAGGGCUCC	0.658

Study 2
Target: Fragile X messenger ribonucleoprotein 1, C-terminal low-complexity region (Fmr1, Mus musculus, UniProt P35922)
Method: RNA Bind-n-Seq
Form: RNA
Matrix: in vitro
Concentration: 200 nM
Setting: whole 134-nt RNA, ends assumed
Added: 150 mM LiCl
Reference: input library
Reading: higher = stronger binding
Each molecule: 7-deaza-guanosine replaces G
Constant ends, left off below: GGGAGUUCUACAGUCCGACGAUC … UGGAAUUCUCGGGUGUCAAGG
Sequence	log2 enrichment
UGGGAGGUGGAUUUUGUUUAUUUUGUUAGCUCAUUUCCAGGGGUGGGAAUUUUUUUUUAAUAUGUGUCAUGAAUAAAGUUGUUUUUGAAA	-0.0817
CAAGUCCUGUGCUACACAUCGUAUGUACCGAAUCGGGGUGGGGAAAGGGGAGGGGAAAGUAUUAUGUUACGCCGUUCGGAUCUGCACUUC	-0.298
CUGUGCUACACAUCGUAUGUACCGAAUCGGGGCCCCCCGGGGCCCCCCGGGGCCCCCCGGGGAAAGUAUUAUGUUACGCCGUUCGGAUCU	-3.04
AGUCCUGUGCUACACAUCGUAUGUACCGAAUCGGUUUGGUUUUUUUGGAAAAAAAGGAAAGUAUUAUGUUACGCCGUUCGGAUCUGCACU	-2.6
CCUGUGCUACACAUCGUAUGUACCGAAUCGGGCCCCCCCGGGGCCCCCCCGGCCCCCCCGGAAAGUAUUAUGUUACGCCGUUCGGAUCUG	0.796
CUGUGCUACACAUCGUAUGUACCGAAUCGGGGAAAAAAAGGGGAAAGGGGAAAAAAAGGGGAAAGUAUUAUGUUACGCCGUUCGGAUCUG	1.38
AGUCCUGUGCUACACAUCGUAUGUACCGAAUCGGGGCCCCCGGCCCCCGGGCCCCCGGAAAGUAUUAUGUUACGCCGUUCGGAUCUGCAC	-2.89
UCCUCAAGUCCUGUGCUACACAUCGUAUGUACCGAAUCGGAGGAAAGGUGGAAAGUAUUAUGUUACGCCGUUCGGAUCUGCACUUCCAGC	-1.92
AAGUCCUGUGCUACACAUCGUAUGUACCGAAUCGGGUUUGGGUUUUUUUGGGUGGGAAAGUAUUAUGUUACGCCGUUCGGAUCUGCACUU	-1.05
AGUCCUGUGCUACACAUCGUAUGUACCGAAUCAAAUUUAAACCCAAAUUUUUUUAAAAAAGUAUUAUGUUACGCCGUUCGGAUCUGCACU	-1.91
AAGUCCUGUGCUACACAUCGUAUGUACCGAAUCGGGGAAAGGGGAAAGGGGAAAGGAAAGUAUUAUGUUACGCCGUUCGGAUCUGCACUU	-0.0529

Study 3
Target: CCND2, cyclin fold, Cln2 fusion (human)
Method: yeast growth competition, sequencing
Matrix: yeast
Setting: weak parent motif
Reference: not given
Reading: higher = stronger binding
Starting sequence: CDKN1B docking peptide (human); PSACRNLFGPVDH
Variant	normalised enrichment score
P1C	0.0803
P10I	0.0125
F8Y	-0.185
S2W	0.0216
V11H	0.46
G9R	-0.19
D12A	0.625
H13N	-0.0579
R5G	-0.0841
D12E	0.177
N6I	0.319
V11M	0.374
D12M	0.232
D12P	0.109
A3L	0.0902
P1Y	0.25
F8W	0.0976
A3N	0.000751

Study 4
Target: ABI1, truncated, D143A, DHFR fusion (Arabidopsis thaliana)
Method: DHFR PCA, deep sequencing
Matrix: yeast
Setting: methotrexate growth selection, single substitutions
Added: (+)-ABA 0.11 µM
Reference: wild-type fitted maximum
Reading: higher = stronger binding
Starting sequence: PYL1, truncated, DHFR fusion (Arabidopsis thaliana); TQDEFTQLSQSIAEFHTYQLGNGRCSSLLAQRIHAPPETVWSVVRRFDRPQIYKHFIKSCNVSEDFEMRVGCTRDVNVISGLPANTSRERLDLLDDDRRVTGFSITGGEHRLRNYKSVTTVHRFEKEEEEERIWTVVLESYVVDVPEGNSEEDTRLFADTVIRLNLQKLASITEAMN; partner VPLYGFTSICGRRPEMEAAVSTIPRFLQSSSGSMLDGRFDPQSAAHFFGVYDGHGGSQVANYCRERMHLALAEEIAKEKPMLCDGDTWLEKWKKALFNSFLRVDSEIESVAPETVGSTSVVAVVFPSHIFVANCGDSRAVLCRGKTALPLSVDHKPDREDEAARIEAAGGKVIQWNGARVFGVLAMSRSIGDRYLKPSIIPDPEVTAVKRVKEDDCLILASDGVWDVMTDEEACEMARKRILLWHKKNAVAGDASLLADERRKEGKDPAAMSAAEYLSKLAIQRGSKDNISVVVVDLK
Variant	relative binding score [%]
S26I	-0.218
K116P	7.07
R98H	4.05
R113M	20.1
R123S	52.9
I33P	7.94
C60A	8.6
R99M	89.8
Y53R	2.3
E127D	51.8
A170E	-7.44
M68V	15.8
G71M	0.21
T39D	15
R90C	6.29
K58E	11

Study 5
Target: Histone acetyltransferase KAT6A, both winged helices, GST fusion (KAT6A, Homo sapiens, UniProt Q92794, residues 1-181)
Method: protein binding microarray
Form: double-stranded DNA, one strand shown
Matrix: in vitro
Concentration: not given
Setting: 8-mer, flanks averaged, mean of 2 arrays, mostly near background
Reference: not given
Reading: higher = stronger binding
Residues (chain): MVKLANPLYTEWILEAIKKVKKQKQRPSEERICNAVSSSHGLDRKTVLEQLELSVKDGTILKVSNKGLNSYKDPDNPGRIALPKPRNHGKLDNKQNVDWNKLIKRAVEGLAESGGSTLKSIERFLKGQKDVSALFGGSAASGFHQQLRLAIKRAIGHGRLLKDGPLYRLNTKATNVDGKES
Sequence	E-score
AACCCACT	-0.0556
AACCCCTA	-0.236
TATTCAGA	-0.0305
CATGCAGA	0.0088
GGGCTCAC	-0.0959
ATGGATTA	-0.135
ATATCGTA	-0.133
AGATCGCA	-0.00461
ACCAATGG	-0.113
CATACGGC	0.263
CCACGAAA	-0.125
CTTAATGA	-0.13
AGTACCCC	-0.107
AAGGGATC	-0.123
CTTATCTC	-0.129
AGGGAGAT	-0.237
CGACTAAA	-0.05
CTTGGGAA	-0.0527
ATAATATG	0.01
ATTCCACG	0.00825
GCAAACCC	0.0984

Further values, each from its own experiment
Molecule	target	test	test system	setting	how to read	endpoint	value
PhoQ, residues 284 288 289 292 302 303 SACGEM	PhoP, residues 12 14 15 18 19 LHSVQ (Escherichia coli, UniProt P23836)	Sort-seq, refers to: YFP reporter	E. coli	PhoQ-PhoP variant library, added: 10 µM Mg2+	reference: high Mg2+ state, higher = stronger signaling	fold induction	0.993

Some of these lines once more (study 1):
Sequence	RBNS enrichment (R)
CGGGGAGGGUUGGCAGUGGUGGGGCCCAUCCUCUAUCCUGUAGCUCCUGCCGCUGCGAGGCUGAACUCUUUGGUCCUGCCUCCCGUUCUCAAUACACUCUGUCUCAAAUC	0.546
AUUGGGGGACACGGUGGCCACUCGCGGUCUGUGUCAUGACACUUCCCAUUCACAUCAUUGGCCUGCGUUGCUGGGGCUUUGAACCACCACCCCGUACUUUGUUUUGCCUG	0.821
GUACUUUCCCCGGAAACUACGUCAAGAGGCUGUGAAUUGCGCUCCCUCCUUCUGUAGAGGCCGCCUGCCAGCCAUGCACCUGCGUCAACGCGCCUGAAACACCCCGCGGG	0.284
GCGGUGACUUUCUUUUUUUGUAAAGCAAAUUACUUAAGAAAAUACAAUUCACUUGAAUUUGACAAACUGAAACAGAUGGGUUUUCUGGGUUCUCUGAUAACCUAUGGGAA	0.304
GAGUUGUGAGCUCUUCUUCUGUAGCCCUGAAGGGACACUGUAUUCUGUAUGAAUGCAUGGCAUGAGACAACUAAUUUAAGAGACUUUUAUAAAUAAAGUUUGCAUUAACU	1.31
AGGGCUGAACAUAGGAUUUAUGGCUAGCAGAAUUCCAGCUCCCUUGGGUAAGGAACCAAAGCUCUCUUGGCUAUAGCCAGCCUCCUCAUUGAAGGGUGUUUUAGGGUAUC	0.318
UCAGUGGUCAUUCUUCUGCCUUCCAAAAUCUUAGUUUUAUAAAAGCAUUGUGUAUGACAGAGUGGCCUUGAAGAGACUGAAUAAUCAUUUUAUAAUAAUGUUGAAGGAAA	1.32
GUUGAGCCCAAGUGGUGGAGUCCUAUUCAUGGGCCUCAGUGCAUGCUGGCUUUAGCCCCAUGCUCAGGGUUCUCUGGGAAGUUUCAGGUUUCCAAGAUAGCACAGUGACC	1.09
